Assay results from different studies.
Compare with care: the assays were run in different laboratories. Numbers after ± are the reported error.
rep main protease: Replicase polyprotein 1ab, main protease (rep, Severe acute respiratory syndrome coronavirus 2, UniProt P0DTD1)
Spike glycoprotein: Spike glycoprotein (Severe acute respiratory syndrome coronavirus 2, UniProt P0DTC2)
Chain of UniProt Q7BQ98 (whole entry, looked up): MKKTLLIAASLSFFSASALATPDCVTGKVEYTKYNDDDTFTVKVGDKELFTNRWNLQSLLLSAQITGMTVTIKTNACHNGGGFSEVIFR
Chain of UniProt Q5XXP4 (whole entry, looked up): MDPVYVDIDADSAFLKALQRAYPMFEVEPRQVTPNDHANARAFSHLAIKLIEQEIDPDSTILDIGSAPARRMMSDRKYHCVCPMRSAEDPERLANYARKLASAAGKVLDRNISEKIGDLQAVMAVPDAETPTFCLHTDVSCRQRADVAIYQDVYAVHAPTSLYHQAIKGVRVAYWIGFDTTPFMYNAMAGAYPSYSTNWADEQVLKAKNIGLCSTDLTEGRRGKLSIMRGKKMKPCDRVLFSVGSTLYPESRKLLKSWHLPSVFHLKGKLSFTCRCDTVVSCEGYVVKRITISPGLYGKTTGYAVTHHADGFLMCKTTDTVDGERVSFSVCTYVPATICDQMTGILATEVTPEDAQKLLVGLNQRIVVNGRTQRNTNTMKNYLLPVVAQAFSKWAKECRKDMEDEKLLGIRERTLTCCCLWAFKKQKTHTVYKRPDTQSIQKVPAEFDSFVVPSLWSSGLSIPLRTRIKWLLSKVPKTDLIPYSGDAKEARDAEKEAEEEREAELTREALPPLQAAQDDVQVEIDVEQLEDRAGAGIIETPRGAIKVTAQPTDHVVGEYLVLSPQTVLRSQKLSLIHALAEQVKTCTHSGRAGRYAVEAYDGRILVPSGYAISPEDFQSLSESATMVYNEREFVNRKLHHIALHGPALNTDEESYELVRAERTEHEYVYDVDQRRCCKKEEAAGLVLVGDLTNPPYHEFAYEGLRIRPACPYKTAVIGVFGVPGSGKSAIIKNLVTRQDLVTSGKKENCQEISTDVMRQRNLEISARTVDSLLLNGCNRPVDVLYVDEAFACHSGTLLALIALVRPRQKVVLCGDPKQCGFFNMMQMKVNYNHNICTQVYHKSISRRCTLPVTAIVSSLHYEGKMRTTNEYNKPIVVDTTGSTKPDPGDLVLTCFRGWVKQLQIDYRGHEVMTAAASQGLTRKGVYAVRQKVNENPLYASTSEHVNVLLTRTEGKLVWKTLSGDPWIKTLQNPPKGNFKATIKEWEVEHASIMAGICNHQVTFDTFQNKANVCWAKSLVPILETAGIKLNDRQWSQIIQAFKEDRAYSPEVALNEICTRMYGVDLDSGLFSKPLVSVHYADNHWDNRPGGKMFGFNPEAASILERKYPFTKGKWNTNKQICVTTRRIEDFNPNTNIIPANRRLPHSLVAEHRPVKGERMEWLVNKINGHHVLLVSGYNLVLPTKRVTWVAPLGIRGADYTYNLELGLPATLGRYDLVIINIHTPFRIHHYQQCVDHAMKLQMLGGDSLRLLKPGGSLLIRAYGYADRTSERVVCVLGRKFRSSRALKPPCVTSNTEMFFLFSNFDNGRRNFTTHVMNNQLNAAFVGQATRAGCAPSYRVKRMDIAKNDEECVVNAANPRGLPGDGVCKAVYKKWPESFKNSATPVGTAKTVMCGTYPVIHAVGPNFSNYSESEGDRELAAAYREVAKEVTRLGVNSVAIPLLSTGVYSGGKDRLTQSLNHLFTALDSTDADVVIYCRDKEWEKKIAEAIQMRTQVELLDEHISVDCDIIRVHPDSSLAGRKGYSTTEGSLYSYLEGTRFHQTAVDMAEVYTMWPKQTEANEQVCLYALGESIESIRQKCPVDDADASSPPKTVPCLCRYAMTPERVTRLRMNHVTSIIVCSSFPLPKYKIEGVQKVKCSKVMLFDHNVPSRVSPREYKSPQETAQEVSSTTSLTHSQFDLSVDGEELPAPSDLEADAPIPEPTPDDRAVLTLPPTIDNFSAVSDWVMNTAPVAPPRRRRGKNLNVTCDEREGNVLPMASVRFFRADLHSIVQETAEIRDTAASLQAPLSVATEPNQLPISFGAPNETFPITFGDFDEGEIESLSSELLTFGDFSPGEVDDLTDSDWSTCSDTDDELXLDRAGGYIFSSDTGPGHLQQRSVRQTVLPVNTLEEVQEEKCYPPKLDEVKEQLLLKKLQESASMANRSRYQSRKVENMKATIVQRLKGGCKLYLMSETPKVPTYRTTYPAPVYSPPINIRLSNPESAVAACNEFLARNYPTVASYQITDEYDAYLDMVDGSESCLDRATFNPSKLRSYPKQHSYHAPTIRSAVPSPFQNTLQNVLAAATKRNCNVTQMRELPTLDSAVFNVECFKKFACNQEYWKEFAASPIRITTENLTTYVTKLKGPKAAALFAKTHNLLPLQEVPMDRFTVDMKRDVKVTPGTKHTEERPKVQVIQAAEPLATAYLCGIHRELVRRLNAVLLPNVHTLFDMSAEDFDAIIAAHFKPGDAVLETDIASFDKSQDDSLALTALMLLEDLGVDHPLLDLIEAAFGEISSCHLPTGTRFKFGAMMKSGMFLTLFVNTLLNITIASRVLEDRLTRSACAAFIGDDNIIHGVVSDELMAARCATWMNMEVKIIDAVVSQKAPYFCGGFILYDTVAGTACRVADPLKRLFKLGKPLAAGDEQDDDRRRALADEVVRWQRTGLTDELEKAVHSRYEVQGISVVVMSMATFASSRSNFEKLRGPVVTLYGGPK

| Structure (SMILES) | target or system | test | system | setting | how to read | quantity | value |
| --- | --- | --- | --- | --- | --- | --- | --- |
| O=c1cc(O)c2ccccc2o1 | rep main protease | reporter gene (Gaussia luciferase), inhibitor | – | 20 µM | – | inhibition | 2.13% |
| C[C@H]1CC[C@@]2(OC1)O[C@H]1C[C@H]3[C@@H]4CC[C@@H]5C[C@@H](O[C@@H]6O[C@H](CO)[C@H](O)[C@H](O)[C@H]6O[C@@H]6O[C@H](CO)[C@@H](O)[C@H](O)[C@H]6O)CC[C@]5(C)[C@H]4CC[C@]3(C)[C@H]1[C@@H]2C | Spike glycoprotein | binding | – | – | – | kon | 33100 M⁻¹ s⁻¹ |
| NCCNCCNCCN | ACE2 (Homo sapiens, UniProt Q9BYF1) | – | – | – | – | Emax | -60.8% |
| O=C(O)c1cc(OCCNC(=O)c2cc(OCc3cn([C@@H]4O[C@H](CO)[C@H](O[C@H]5O[C@H](CO)[C@H](O)[C@H](O)[C@H]5O)[C@H](O)[C@H]4O)nn3)cc(OCc3cn([C@@H]4O[C@H](CO)[C@H](O[C@H]5O[C@H](CO)[C@H](O)[C@H](O)[C@H]5O)[C@H](O)[C@H]4O)nn3)c2)cc(OCCNC(=O)c2cc(OCc3cn([C@@H]4O[C@H](CO)[C@H](O[C@H]5O[C@H](CO)[C@H](O)[C@H](O)[C@H]5O)[C@H](O)[C@H]4O)nn3)cc(OCc3cn([C@@H]4O[C@H](CO)[C@H](O[C@H]5O[C@H](CO)[C@H](O)[C@H](O)[C@H]5O)[C@H](O)[C@H]4O)nn3)c2)c1 | Shiga toxin subunit B (stxB, Shigella dysenteriae, UniProt Q7BQ98) | – | Escherichia coli | – | – | log IC50 | -4.7 |
| COc1oc(=O)c2cc(N)ccc2c1Cl | rep main protease | viral replication, mKate2 reporter | SARS-CoV-2 | 20 µM | – | inhibition | -0.397% |
| O=C1NCc2ccc(C(=O)N3CCC[C@@H]([C@H]4CCN(C(=O)c5cn[nH]c(=O)c5)C4)C3)cc2N1 | rep main protease | enzyme activity, inhibitor | – | 5 µM, run 2 | – | inhibition | 14.9% |
| O=C(/C=C/c1ccc(O)c2oc(-c3ccc(O)c(O)c3)cc12)O[C@H](Cc1ccc(O)c(O)c1)C(=O)O | Spike glycoprotein | binding, biolayer interferometry | – | – | – | kon | 626 M⁻¹ s⁻¹ |
| Nc1ncnc2c([C@@H]3N[C@H](CO)[C@@H](O)[C@H]3O)c[nH]c12 | Marburg virus | viral RNA in cell lysate | HeLa, Musoke | 100 µM, 24 h | – | inhibition | 70.2% |
| Cc1ccc(C(=O)N2CC3(CCC3)C[C@H]2CNC(=O)c2cncc3[nH]cnc23)cc1O | rep main protease | enzyme activity, inhibitor | – | 5 µM, run 1 | – | inhibition | 17.1% |
| CCCC(C)NC(=O)c1ccc(Cl)c(Cl)c1 (stereo not drawn) | rep main protease | viral replication, mKate2 reporter | SARS-CoV-2 | 20 µM | – | inhibition | 0.196% |
| CNC(=O)[C@@H](NC(=O)[C@H](CC(C)C)[C@H](O)C(=O)NO)C(C)(C)C | Daboia russelii venom proteases (SVMP) | protease activity, inhibitor | RJ population | 0.001 µM, added: azocasein substrate | relative to: venom alone | remaining activity | 100% |
| CC1(C)Cc2ccc(C(=O)N3CCCC[C@H](C4CN(C(=O)c5cncc(O)c5)C4)C3)cc2O1 | rep main protease | enzyme activity, inhibitor | – | 5 µM, mean of runs | – | inhibition | 11.5% |
| COc1ccc(C[C@@H]2c3cc(Oc4cc(C[C@@H]5c6cc(O)c(OC)cc6CCN5C)ccc4O)c(OC)cc3CCN2C)cc1 | Spike glycoprotein | binding | – | – | – | koff | 0.131 s⁻¹ |
| CC[C@H](C)[C@H](NC(=O)[C@H](CC(C)C)NC(=O)[C@H](Cc1c[nH]c2ccccc12)NC(=O)[C@H](CCC(N)=O)NC(=O)[C@@H](NC(=O)[C@H](Cc1ccccc1)NC(=O)[C@H](C)NC(=O)[C@H](CCCCNC(=O)COCCOCCNC(=O)COCCOCCNC(=O)CC[C@H](NC(=O)CCCCCCCCCCCCCCCCCCC(=O)O)C(=O)O)NC(=O)[C@H](CCC(N)=O)NC(=O)[C@H](C)NC(=O)[C@@H](NC(=O)[C@H](CCCCN)NC(=O)[C@H](CC(=O)O)NC(=O)[C@H](CC(C)C)NC(=O)C(C)(C)NC(=O)[C@@H](NC(=O)[C@H](CO)NC(=O)[C@H](Cc1ccc(O)cc1)NC(=O)[C@H](CC(=O)O)NC(=O)[C@H](CO)NC(=O)[C@@H](NC(=O)[C@H](Cc1ccccc1)NC(=O)[C@@H](NC(=O)CNC(=O)[C@H](CCC(=O)O)NC(=O)C(C)(C)NC(=O)[C@@H](N)Cc1ccc(O)cc1)[C@@H](C)O)[C@@H](C)O)[C@@H](C)CC)[C@@H](C)CC)C(C)C)C(=O)N[C@@H](C)C(=O)NCC(=O)NCC(=O)N1CCC[C@H]1C(=O)N[C@@H](CO)C(=O)N[C@@H](CO)C(=O)NCC(=O)N[C@@H](C)C(=O)N1CCC[C@H]1C(=O)N1CCC[C@H]1C(=O)N1CCC[C@H]1C(=O)N[C@@H](CO)C(N)=O | – | refers to: treatment-emergent vessel puncture site bruise | healthy subjects | 1.5 mg, multiple ascending dose | – | subjects with adverse event | 16.7% |
| O=C(NC[C@@H]1Cc2ccccc2CN1c1nnnn1-c1ccccc1)c1cc[nH]c(=O)c1 | rep main protease | enzyme activity, inhibitor | – | 5 µM, run 2 | – | inhibition | 11.6% |
| Cn1cnc(Cn2c(=O)[nH]/c(=N\c3cc4cn(C)nc4cc3Cl)n(Cc3cc(F)c(F)cc3F)c2=O)n1 | – | – | human, normal renal function | oral, 375 mg, decreased GFR TEAE, Mild severity | – | patients with adverse event | 0% |
| COC(=O)N[C@H](C(=O)NNC[C@H](O)[C@H](Cc1ccccc1)NC(=O)[C@@H](NC(=O)OC)C(C)(C)C)C(C)(C)C | rep main protease | viral replication, mKate2 reporter | SARS-CoV-2 | 20 µM | – | inhibition | -0.773% |
| COc1cccc(-c2nc(C(=O)NCC=CS(C)(=O)=O)c(C)[nH]2)c1 | Polyprotein P1234, nsP2 protease domain (Chikungunya virus, UniProt Q5XXP4) | time-dependent inhibitor | – | – | – | kinact | 0.0023 ± 0.0003 s⁻¹ |

Some of these lines once more:
| Structure (SMILES) | target or system | test | system | setting | how to read | quantity | value |
| --- | --- | --- | --- | --- | --- | --- | --- |
| Cn1cnc(Cn2c(=O)[nH]/c(=N\c3cc4cn(C)nc4cc3Cl)n(Cc3cc(F)c(F)cc3F)c2=O)n1 | – | – | human, normal renal function | oral, 375 mg, decreased GFR TEAE, Mild severity | – | patients with adverse event | 0% |
| COC(=O)N[C@H](C(=O)NNC[C@H](O)[C@H](Cc1ccccc1)NC(=O)[C@@H](NC(=O)OC)C(C)(C)C)C(C)(C)C | rep main protease | viral replication, mKate2 reporter | SARS-CoV-2 | 20 µM | – | inhibition | -0.773% |
